Measurements of several laboratories.
Each numbered part is a random draw from the data of one study; scales do not carry over between parts.

Sample 1
Target: 5-hydroxytryptamine receptor 1B (HTR1B, Homo sapiens, UniProt P28222)
UniProt P28222, sequence (whole entry, looked up): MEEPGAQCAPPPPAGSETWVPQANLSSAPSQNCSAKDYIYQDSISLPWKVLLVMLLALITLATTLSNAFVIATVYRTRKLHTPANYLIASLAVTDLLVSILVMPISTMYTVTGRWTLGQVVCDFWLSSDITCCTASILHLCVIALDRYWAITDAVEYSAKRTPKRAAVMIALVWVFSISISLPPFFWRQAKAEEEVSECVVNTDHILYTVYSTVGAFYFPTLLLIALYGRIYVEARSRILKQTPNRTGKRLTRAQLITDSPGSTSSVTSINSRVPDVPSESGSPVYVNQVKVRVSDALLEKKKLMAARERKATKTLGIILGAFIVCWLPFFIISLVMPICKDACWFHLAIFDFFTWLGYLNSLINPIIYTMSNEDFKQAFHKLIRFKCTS
Observed: ligand displacement
Technique: radioligand
Tested at: 10 µM
Quantity: inhibition
CC(=O)C1=C(C)N(c2cccc(C(F)(F)F)c2)C(=O)N[C@@H]1c1ccc(C#N)nc1: 6.69%
CN([C@@H]1CCc2c(CC(=O)O)c3cc(S(C)(=O)=O)ccc3n2C1)S(=O)(=O)c1ccc(F)cc1: 2.61%
O=C(N[C@H]1CCCCC/C=C\C2C[C@@]2(C(=O)O)NC(=O)[C@@H]2C[C@@H](Oc3ccncc3)CN2C1=O)OC1CCCC1 (stereo partly drawn): -3.04%
CNCc1ccccc1-c1csc([C@@H](C)Nc2nc(C)nc3cc(OC)c(OC)cc23)c1: 66.1%
O=C(O)c1cc(-c2ccc(C3CCNCC3)cc2)c2ccc(-c3ccc(C(F)(F)F)cc3)cc2c1: 20.4%
O=C(NC[C@@H]1[C@H]2CN(C(=O)OCc3cc(C(F)(F)F)cc(C(F)(F)F)c3)C[C@@H]12)c1ccc2[nH]nnc2c1: 17.9%
O=C(NS(=O)(=O)c1ccc(NCC2CCOCC2)c([N+](=O)[O-])c1)c1ccc(N2CCN(Cc3ccc(C(F)(F)F)cc3-c3ccc(Cl)cc3)CC2)cc1Oc1cnc2[nH]ccc2c1: -6.15%

Sample 2
Target: Rho-associated protein kinase 2 (ROCK2, Homo sapiens, UniProt O75116)
UniProt O75116, sequence (whole entry, looked up): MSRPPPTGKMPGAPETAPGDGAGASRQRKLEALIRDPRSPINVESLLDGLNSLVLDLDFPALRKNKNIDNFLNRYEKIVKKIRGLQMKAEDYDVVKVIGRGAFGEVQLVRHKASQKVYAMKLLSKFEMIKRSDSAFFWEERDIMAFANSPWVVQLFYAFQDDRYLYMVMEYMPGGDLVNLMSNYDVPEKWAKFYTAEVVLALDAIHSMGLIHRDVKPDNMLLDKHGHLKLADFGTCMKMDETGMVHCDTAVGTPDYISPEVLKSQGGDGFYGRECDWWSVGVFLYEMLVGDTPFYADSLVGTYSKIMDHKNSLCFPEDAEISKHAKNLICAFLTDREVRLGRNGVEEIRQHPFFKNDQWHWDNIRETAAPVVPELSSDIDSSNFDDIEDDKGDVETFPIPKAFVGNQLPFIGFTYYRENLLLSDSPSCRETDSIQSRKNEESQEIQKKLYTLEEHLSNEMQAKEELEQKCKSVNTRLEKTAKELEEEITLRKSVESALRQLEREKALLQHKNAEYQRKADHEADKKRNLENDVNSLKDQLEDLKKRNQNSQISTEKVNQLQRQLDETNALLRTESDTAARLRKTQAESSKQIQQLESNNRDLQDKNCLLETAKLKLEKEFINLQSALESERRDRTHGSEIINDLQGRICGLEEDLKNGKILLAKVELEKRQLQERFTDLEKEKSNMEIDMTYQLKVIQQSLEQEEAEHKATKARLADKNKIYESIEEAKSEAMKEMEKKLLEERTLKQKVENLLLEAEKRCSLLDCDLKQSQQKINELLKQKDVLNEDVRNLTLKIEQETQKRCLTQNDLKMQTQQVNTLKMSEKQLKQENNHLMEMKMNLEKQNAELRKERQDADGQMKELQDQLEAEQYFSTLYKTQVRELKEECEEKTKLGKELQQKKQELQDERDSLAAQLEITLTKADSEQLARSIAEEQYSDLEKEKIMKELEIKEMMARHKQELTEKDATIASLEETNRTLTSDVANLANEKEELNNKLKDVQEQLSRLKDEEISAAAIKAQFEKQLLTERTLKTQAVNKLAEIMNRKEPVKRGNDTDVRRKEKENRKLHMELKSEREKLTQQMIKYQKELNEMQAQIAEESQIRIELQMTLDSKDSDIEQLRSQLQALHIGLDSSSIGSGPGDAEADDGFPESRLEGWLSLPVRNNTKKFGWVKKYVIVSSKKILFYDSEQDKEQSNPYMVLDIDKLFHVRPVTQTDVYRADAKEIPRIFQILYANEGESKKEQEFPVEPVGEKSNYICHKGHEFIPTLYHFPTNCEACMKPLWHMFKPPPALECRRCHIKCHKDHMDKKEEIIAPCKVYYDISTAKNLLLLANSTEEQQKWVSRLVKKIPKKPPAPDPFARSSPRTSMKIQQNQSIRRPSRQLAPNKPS
Observed: enzyme activity
Action: inhibitor
Tested at: 0.5 µM
Reference: control
Quantity: remaining activity
COc1cc2c(Nc3ccc(Br)cc3F)ncnc2cc1OCC1CCN(C)CC1: 90.7%
CC(C)N(CCC(=O)c1ccc2ccccc2c1)Cc1ccccc1: 92.8%
O=Nc1c(-c2c(O)[nH]c3ccccc23)[nH]c2ccccc12: 98.5%
CCN(CC)CCCCN1c2ccccc2Oc2ccc(Cl)cc21: 104%
O=C1Nc2ccccc2/C1=C\c1c(Cl)[nH]c2ccccc12: 90.2%
O=c1c(-c2ccc(F)cc2)c(-c2ccncc2)[nH]n1-c1ccc(Cl)cc1: 89.5%
COc1cccc(-c2cc(=O)c3ccccc3o2)c1N: 91.5%
O=C1NC(=O)c2c1c1c3ccccc3[nH]c1n1cncc21: 93.2%
O=C(O)/C=C/c1cc(Br)c(Br)c(Br)c1Br: 94.2%
COc1cc2c(N3CCN(C(=O)Nc4ccc(OC(C)C)cc4)CC3)ncnc2cc1OCCCN1CCCCC1: 90.8%
O=Nc1c(-c2c(O)[nH]c3cc(Br)ccc23)[nH]c2ccccc12: 92.1%
c1cc(-c2cnn3cc(-c4ccc(OCCN5CCCCC5)cc4)cnc23)ccn1: 100%
NC(=O)c1cccc(-c2cc(Nc3ccc(OC(F)(F)F)cc3)ncn2)c1: 98.5%
O=C1NC(=O)/C(=C/c2ccc3c(c2)OC(F)(F)O3)S1: 92.4%
COc1ccc2c(c1)c(C1=C(c3c[nH]c4ccccc34)C(=O)NC1=O)cn2CCCN(C)C: 89.2%
N#CC(c1ccnc(NCCc2cccnc2)n1)c1nc2ccccc2s1 (stereo not drawn): 83.6%
O=C(c1cc2cc(O)ccc2[nH]1)c1cc2cc(O)ccc2[nH]1: 92.9%
COc1ccc(COc2ccc(Cc3cnc(N)nc3N)cc2OC)cc1: 84.1%
FC(F)(F)c1ccc(/C=C/c2nc(COc3ccc(CCCCn4ccnn4)cc3)co2)cc1: 99.7%
O=C(c1ccccc1)c1ccc(N2CCOCC2)cc1O: 96%
CN(C)S(=O)(=O)c1ccc2c(c1)/C(=C/c1cc3c([nH]1)CCCC3)C(=O)N2: 88.2%
O=C1Nc2ccc(Br)cc2/C1=C/c1cc2c([nH]1)CCCC2: 92.8%
O=C1NC(=O)c2c1c1c3ccccc3[nH]c1c1[nH]c3cc(Br)ccc3c21: 72.7%
NC(=O)c1ccc(-c2nc(-c3ccc4c(c3)OCCO4)c(-c3ccccn3)[nH]2)cc1: 93.1%
Cc1cc(Nc2cc(N3CCN(C)CC3)nc(Sc3ccc(NC(=O)C4CC4)cc3)n2)[nH]n1: 92%

Sample 3
Organism: Sarcocystis neurona
Observed: parasite growth
Tested at: 10 µM
Quantity: inhibition
COC(=O)C1=C(C)NC(C)=C(C(=O)OCCN(C)Cc2ccccc2)C1c1cccc([N+](=O)[O-])c1 (stereo not drawn): -32.1%
CCn1cc(C(=O)O)c(=O)c2ccc(C)nc21: -23.8%
NS(=O)(=O)c1cc(C2(O)NC(=O)c3ccccc32)ccc1Cl (stereo not drawn): -20.8%
O=C(CCCN1CCC(O)(c2ccc(Cl)cc2)CC1)c1ccc(F)cc1: 14.7%
Cc1[nH]c(=O)c(C#N)cc1-c1ccncc1: -29.1%
CCN1CC(CCN2CCOCC2)C(c2ccccc2)(c2ccccc2)C1=O.Cl (stereo not drawn): -26.7%
OCCN1CCN(CCCN2c3ccccc3Sc3ccc(C(F)(F)F)cc32)CC1: 88%
CC[C@H]1OC(=O)[C@H](C)[C@@H](O[C@H]2C[C@@](C)(OC)[C@@H](O)[C@H](C)O2)[C@H](C)[C@@H](O[C@@H]2O[C@H](C)C[C@H](N(C)C)[C@H]2O)[C@](C)(O)C[C@@H](C)CN(C)[C@H](C)[C@@H](O)[C@]1(C)O: 2.2%

Sample 4
SMILES: CC(C)n1cnc(-c2ccc(F)cc2)c1-c1ncc(C(=O)Nc2ccc(N3CCN(C)CC3)cc2)[nH]1
Quantity: patients with adverse event
Phase 2a trial, refers to: hypercholesterolaemia; human, idiopathic pulmonary fibrosis; all compound arms total, grade 1: 0%
Phase 2a trial, refers to: hypercholesterolaemia; human, idiopathic pulmonary fibrosis; 60 mg once daily, grade 3: 0%
Phase 2a trial, refers to: blood glucose increased; human, idiopathic pulmonary fibrosis; 60 mg once daily, grade 2: 0%
Phase 2a trial, refers to: hypertriglyceridaemia; human, idiopathic pulmonary fibrosis; 60 mg once daily, grade 2: 0%
refers to: periorbital oedema, grade 2; idiopathic pulmonary fibrosis patients; dose not given, all compound arms pooled: 0%
Phase 2a trial, refers to: blood glucose increased; human, idiopathic pulmonary fibrosis; 30 mg once daily, grade 5: 0%
Phase 2a trial, refers to: blood urea increased; human, idiopathic pulmonary fibrosis; 30 mg once daily, grade 1: 0%
Phase 2a trial, refers to: blood creatinine increased; human, idiopathic pulmonary fibrosis; all compound arms total, grade 5: 0%

Sample 5
Cell line: HaCaT
Tested at: 100 µM
Time: 36 h
Quantity: viability
CN1CCN2c3ncccc3Cc3ccccc3C2C1 (stereo not drawn): 76.3%
Cc1cn(-c2cc(NC(=O)c3ccc(C)c(Nc4nccc(-c5cnccn5)n4)c3)cc(C(F)(F)F)c2)cn1: 8.88%
CC[C@]1(O)C[C@@H]2CN(CCc3c([nH]c4ccccc34)[C@@](C(=O)OC)(c3cc4c(cc3OC)N(C)[C@H]3[C@@](O)(C(=O)OC)[C@H](OC(C)=O)[C@]5(CC)C=CCN6CC[C@]43[C@@H]65)C2)C1: 9.69%
O=C(O)c1cc(/N=N/c2ccc(O)c(C(=O)O)c2)ccc1O: 93.7%
N=C(N)N: 88.1%
CCN[C@H]1CN(CCCOC)S(=O)(=O)c2sc(S(N)(=O)=O)cc21: 75.2%
N#CCC(C1CCCC1)n1cc(-c2ncnc3[nH]ccc23)cn1 (stereo not drawn): 13.2%
O=C1C(O)=C([C@H]2CC[C@H](c3ccc(Cl)cc3)CC2)C(=O)c2ccccc21: 11.3%
O=c1ccc2ccc(OCCCCN3CCN(c4cccc5sccc45)CC3)cc2[nH]1: 6.2%

Excerpt of the above (sample 4):
Phase 2a trial, refers to: hypercholesterolaemia; human, idiopathic pulmonary fibrosis; 60 mg once daily, grade 3: 0%
Phase 2a trial, refers to: hypertriglyceridaemia; human, idiopathic pulmonary fibrosis; 60 mg once daily, grade 2: 0%
Phase 2a trial, refers to: blood urea increased; human, idiopathic pulmonary fibrosis; 30 mg once daily, grade 1: 0%
Phase 2a trial, refers to: blood glucose increased; human, idiopathic pulmonary fibrosis; 30 mg once daily, grade 5: 0%
refers to: periorbital oedema, grade 2; idiopathic pulmonary fibrosis patients; dose not given, all compound arms pooled: 0%
